Experimental data gathered from unrelated publications.
Each line is one published result; not all experiments were run side by side. Values after ≈ are worked out from the molar mass of the structure shown.

| SMILES | organism | assay | test system | setting | scale | endpoint | result |
| --- | --- | --- | --- | --- | --- | --- | --- |
| Nc1ccn(C[C@@H](CO)OCP(=O)(O)OCCCS(=O)(=O)CCCCCCCCCCCCC2CCC2)c(=O)n1 | human adenovirus 5 | cytopathic effect | Adenoid 75 |  | reference: CC50 over EC50 | selectivity index | 84 |
| CC[C@H](C)[C@H](NC(=O)[C@H](CCCCN)NC(=O)[C@H](CCCCN)NC(=O)[C@H](CC(C)C)NC(=O)[C@H](CCCCN)NC(=O)[C@H](CCC(=O)O)NC(=O)[C@H](CCCCN)NC(=O)[C@@H](NC(=O)[C@H](CCCCN)NC(=O)[C@H](CC(N)=O)NC(=O)[C@H](CCCNC(=N)N)NC(=O)[C@H](Cc1ccccc1)NC(=O)[C@H](CCCCN)NC(=O)[C@H](CCCNC(=N)N)NC(=O)[C@H](CC(C)C)NC(=O)[C@H](CCCNC(=N)N)NC(=O)[C@H](CCCCN)NC(=O)[C@H](CCCNC(=N)N)NC(=O)[C@H](CC(C)C)NC(=O)CN)[C@@H](C)CC)C(=O)NCC(=O)N[C@@H](CCC(N)=O)C(=O)N[C@@H](CCCCN)C(=O)N[C@H](C(=O)N[C@@H](CCC(N)=O)C(=O)NCC(=O)N[C@@H](Cc1ccccc1)C(=O)N[C@H](C(=O)N1CCC[C@H]1C(=O)N[C@@H](CCCCN)C(=O)N[C@@H](CC(C)C)C(=O)N[C@@H](C)C(=O)N1CCC[C@H]1C(=O)N[C@@H](CCCNC(=N)N)C(=O)N[C@H](C(=O)N[C@@H](CC(=O)O)C(=O)N[C@@H](Cc1ccc(O)cc1)C(=O)O)[C@@H](C)O)C(C)C)[C@@H](C)CC | Salmonella | inhibition zone | ZQ.17N | LB agar, overnight |  | lethal concentration | 1.67 µM |
| C=CCCCCOP(=O)(O)Oc1c2c(c(OP(=O)(O)OCCCCC=C)c3c1C1CC3c3cc4c(cc31)C1CC4c3ccccc31)C1CC2c2cc3c(cc21)C1CC3c2ccccc21 | measles virus | viral infection, flow cytometry | A549, vaccine strain GFP | 2 days, virus pre-incubated 30 min 37 °C |  | IC50 | 7.4 µM |
| O=C(C=CC(Cc1ccccc1)Nc1ccnc2cc(Cl)ccc12)NCCN1CCOCC1 (stereo not drawn) | Plasmodium berghei |  | NK65, ICR mouse | 30 mg/kg once daily, 6 days post-infection |  | survival rate | 40% |
| COc1ccc(C2=Nn3c(N/N=C4/C(=O)Nc5ccc(C)cc54)nnc3SC2)cc1 | Gallus gallus | angiogenesis, HET-CAM | chorioallantoic membrane | 40 µM | reference: DMSO control | capillary number increase | 35% |
| O=C(Cn1ccc(=O)c2ccccc21)N/N=C/c1cc(Br)c(O)c(Br)c1 | Alternaria solani | microbial growth |  | 50 µg/mL |  | inhibition | 30.8% |
| CCN(CCCCOc1ccc(CCC(=O)N2CCC(Cc3ccccc3)CC2)cc1OC)Cc1ccccc1 | Danio rerio |  | BuChE-overexpressing | concentration not given |  | BuChE activity | decreased |
| CC1=C[C@@H](C)[C@H]2[C@@H]3C(=O)C(Cl)(Cl)C(=O)[C@H](C)C(=O)O[C@@H](C)/C=C/C=C\[C@@H](C)[C@@H]3C=C[C@@H]2C1 | Staphylococcus aureus |  | Newman |  |  | maximum tolerated concentration | 1 µg/mL |
| CN[C@@H]1[C@H](O)[C@H](NC)[C@H]2O[C@]3(O)[C@H](O[C@@H]2[C@H]1O)O[C@H](C)C[C@@]3(O)CNCc1ccc(Cl)cc1 | Haemophilus influenzae |  | ATCC 49247 | 40 µg per disc |  | inhibition zone diameter | 15 to 16 mm |
| CC[C@H](C)[C@H](NC(=O)[C@H](CCCCN)NC(=O)[C@H](CCCCN)NC(=O)[C@H](CC(C)C)NC(=O)[C@H](CCCCN)NC(=O)[C@H](CCC(=O)O)NC(=O)[C@H](CCCCN)NC(=O)[C@@H](NC(=O)[C@H](CCCCN)NC(=O)[C@H](CC(N)=O)NC(=O)[C@H](CCCNC(=N)N)NC(=O)[C@H](Cc1ccccc1)NC(=O)[C@H](CCCCN)NC(=O)[C@H](CCCNC(=N)N)NC(=O)[C@H](CC(C)C)NC(=O)[C@H](CCCNC(=N)N)NC(=O)[C@H](CCCCN)NC(=O)[C@H](CCCNC(=N)N)NC(=O)[C@H](CC(C)C)NC(=O)[C@@H](N)CCCNC(=N)N)[C@@H](C)CC)C(=O)NCC(=O)N[C@@H](CCC(N)=O)C(=O)N[C@@H](CCCCN)C(=O)N[C@H](C(=O)N[C@@H](CCC(N)=O)C(=O)NCC(=O)N[C@@H](Cc1ccccc1)C(=O)N[C@H](C(=O)N1CCC[C@H]1C(=O)N[C@@H](CCCCN)C(=O)N[C@@H](CC(C)C)C(=O)N[C@@H](CCC(N)=O)C(=O)N1CCC[C@H]1C(=O)N[C@@H](CO)C(=O)N[C@@H](CCCCN)C(=O)N[C@@H](CCC(N)=O)C(=O)N[C@@H](CO)C(=O)O)C(C)C)[C@@H](C)CC | Bacillus megaterium | inhibition zone | CGMCC 1.046 |  |  | lethal concentration | 1.92 µM |
| COCCNc1nc(C(=O)NCc2ccc(F)cc2)c(O)c2ncccc12 | Human betaherpesvirus 5 | viral replication, inhibitor | HFF | 10 µM |  | inhibition | 21% |
| OC(CN1CCC2(CC1)CC(O)c1ccc3ccccc3c1O2)c1ccc(F)c(F)c1 (stereo not drawn) | Plasmodium berghei |  | ANKA, BALB/c mice | oral, dose not given |  | survival time | 12 days |
| CC[C@H](C)[C@H](NC(=O)[C@H](CCCCN)NC(=O)[C@H](CCCCN)NC(=O)[C@H](CC(C)C)NC(=O)[C@H](CCCCN)NC(=O)[C@H](CCC(=O)O)NC(=O)[C@H](CCCCN)NC(=O)[C@@H](NC(=O)[C@H](CCCCN)NC(=O)[C@H](CC(N)=O)NC(=O)[C@H](CCCNC(=N)N)NC(=O)[C@H](Cc1ccccc1)NC(=O)[C@H](CCCCN)NC(=O)[C@H](CCCNC(=N)N)NC(=O)[C@H](CC(C)C)NC(=O)[C@H](CCCNC(=N)N)NC(=O)[C@H](CCCCN)NC(=O)[C@H](CCCNC(=N)N)NC(=O)[C@@H](N)CC(C)C)[C@@H](C)CC)C(=O)NCC(=O)N[C@@H](CCC(N)=O)C(=O)N[C@@H](CCCCN)C(=O)N[C@H](C(=O)N[C@@H](CCC(N)=O)C(=O)NCC(=O)N[C@@H](Cc1ccccc1)C(=O)N[C@H](C(=O)N1CCC[C@H]1C(=O)N[C@@H](CCCCN)C(=O)N[C@@H](CC(C)C)C(=O)O)C(C)C)[C@@H](C)CC | Salmonella | inhibition zone | DZ.3G | LB agar, overnight |  | lethal concentration | 2.92 µM |
| CN(C)CCCOc1ccc2cc1Oc1ccc(cc1)CC1c3c(cc(OCCCN(C)C)c4c3Oc3cc5c(cc3O4)CCN(C)C5C2)CCN1C (stereo not drawn) | Plasmodium berghei |  | ANKA, mice | intraperitoneal, 20 mg/kg daily for 4 days | reference: untreated | survival increase | 5 days |
| CCCCc1ccc(-c2nc(C)c(C(C)=NNC(=N)N)s2)cc1 | Staphylococcus aureus |  | USA300 MRSA |  |  | MBC | 1.3 µg/mL (≈ 3.95 µM) |
